Published values pooled from the literature.
Protocols differ between the studies behind these lines. ± gives the spread as reported.

| Structure (SMILES) | test | system | conditions | Cmax |
| --- | --- | --- | --- | --- |
| CCc1c2c(nc3ccc(O)cc13)-c1cc3c(c(=O)n1C2)COC(=O)[C@]3(O)CC |  | human patients, plasma | intravenous, 32 mg/m^2 of parent drug | 98 ng/mL |
| CC[C@H](C)[C@H](NC(=O)[C@H](CC(C)C)NC(=O)[C@H](Cc1c[nH]c2ccccc12)NC(=O)[C@H](C)NC(=O)[C@@H](NC(=O)[C@H](Cc1ccccc1)NC(=O)[C@H](CC(=O)O)NC(=O)[C@H](CCCNC(=N)N)NC(=O)[C@H](C)NC(=O)[C@H](C)NC(=O)[C@H](CC(C)C)NC(=O)[C@H](C)NC(=O)[C@H](CC(=O)O)NC(=O)[C@H](CC(C)C)NC(=O)[C@@H](NC(=O)[C@@H](NC(=O)[C@H](C)NC(=O)[C@H](CC(C)C)NC(=O)[C@H](CCC(=O)O)NC(=O)[C@H](CO)NC(=O)[C@H](CO)NC(=O)[C@H](Cc1ccccc1)NC(=O)[C@@H](NC(=O)CNC(=O)[C@H](CCC(=O)O)NC(=O)CNC(=O)[C@@H](N)Cc1c[nH]cn1)[C@@H](C)O)[C@@H](C)O)[C@@H](C)CC)[C@@H](C)CC)C(=O)N[C@@H](C)C(=O)N[C@H](C(=O)N[C@@H](CCCCN)C(=O)N[C@H](C(=O)N[C@H](C(=O)N[C@@H](CC(=O)O)C(=O)N[C@@H](CCCCN)C(=O)N[C@@H](CCCCN)C(=O)O)[C@@H](C)O)[C@@H](C)CC)[C@@H](C)O | immunoaffinity LC-MS/MS | healthy human subjects, plasma | subcutaneous, 5 mg once weekly, day 36 after 6 doses, steady state, geometric mean | 0.371 nM |
| Cc1[nH]nc2c1N=C(c1ccccc1Cl)c1cnc(N3CCOCC3)cc1N2 | measured: total radioactivity | human male, plasma | oral, 10 mg | 84.9 ng eq/mL |
| Cn1c(=O)oc2ccc(-c3ccc(CC(C#N)NC(=O)C4CNCCCO4)c(F)c3)cc21 (stereo not shown) |  | human volunteers, plasma | 15 mg single dose, fasted, geometric mean | 53.7 ng/mL |
| CC[C@H](C)[C@H](NC(=O)[C@H](CC(C)C)NC(=O)[C@H](Cc1c[nH]c2ccccc12)NC(=O)[C@H](C)NC(=O)[C@@H](NC(=O)[C@H](Cc1ccccc1)NC(=O)[C@H](CC(=O)O)NC(=O)[C@H](CCCNC(=N)N)NC(=O)[C@H](C)NC(=O)[C@H](C)NC(=O)[C@H](CC(C)C)NC(=O)[C@H](C)NC(=O)[C@H](CC(=O)O)NC(=O)[C@H](CC(C)C)NC(=O)[C@@H](NC(=O)[C@@H](NC(=O)[C@H](C)NC(=O)[C@H](CC(C)C)NC(=O)[C@H](CCC(=O)O)NC(=O)[C@H](CO)NC(=O)[C@H](CO)NC(=O)[C@H](Cc1ccccc1)NC(=O)[C@@H](NC(=O)CNC(=O)[C@H](CCC(=O)O)NC(=O)CNC(=O)[C@@H](N)Cc1c[nH]cn1)[C@@H](C)O)[C@@H](C)O)[C@@H](C)CC)[C@@H](C)CC)C(=O)N[C@@H](C)C(=O)N[C@H](C(=O)N[C@@H](CCCCN)C(=O)N[C@H](C(=O)N[C@H](C(=O)N[C@@H](CC(=O)O)C(=O)N[C@@H](CCCCN)C(=O)O)[C@@H](C)O)[C@@H](C)CC)[C@@H](C)O | immunoaffinity LC-MS/MS | healthy human subjects, plasma | intravenous infusion, 1 mg single dose, infused over 15 min | 0.419 nM |
| CC(=O)N[C@H](CC(=O)O)C(=O)N[C@H](Cc1c[nH]c2ccccc12)C(=O)N[C@H](Cc1ccccc1)C(=O)N[C@H](CCCCN)C(=O)N[C@H](C)C(=O)N[C@H](Cc1ccccc1)C(=O)N[C@H](Cc1ccc(O)cc1)C(=O)N[C@H](CC(=O)O)C(=O)N[C@H](CCCCN)C(=O)N[C@@H](C(=O)N[C@H](C)C(=O)N[C@H](CCC(=O)O)C(=O)N[C@H](CCCCN)C(=O)N[C@H](Cc1ccccc1)C(=O)N[C@H](CCCCN)C(=O)N[C@H](CCC(=O)O)C(=O)N[C@H](C)C(=O)N[C@H](Cc1ccccc1)C(N)=O)C(C)C |  | human, statin-treated high-risk CHD, both sexes, plasma | oral, 500 mg daily, day 13, 0 to 8 h, mean, undetectable set to 0, outlier woman excluded | 37.1 ng/mL |
| CC(C)(O)c1ncc([S@](N)(=O)=NC(=O)Nc2c3c(cc4c2CCC4)CCC3)s1 |  | healthy human | oral, 30 mg once daily, day 14, capsule formulation, geometric mean | 2770 ng/mL |
| O=C(CCc1ccc(CNC(C(=O)OC2CCCC2)C2CCCCC2)cn1)NO (stereo not shown) |  | human, plasma | oral, 20 mg once daily, day 7, geometric mean | 109 ng/mL |
| CCn1c(=O)n(CCO)c(=O)c2c1nc(/C=C/c1ccc(OC)c(OC)c1)n2C |  | healthy humans, plasma | oral, 40 mg, together with: rifampin 600 mg/day | 14.1 ng/mL |
| CC[C@H](C)[C@H](NC(=O)[C@H](CC(C)C)NC(=O)[C@H](Cc1c[nH]c2ccccc12)NC(=O)[C@H](C)NC(=O)[C@@H](NC(=O)[C@H](Cc1ccccc1)NC(=O)[C@H](CC(=O)O)NC(=O)[C@H](CCCNC(=N)N)NC(=O)[C@H](C)NC(=O)[C@H](C)NC(=O)[C@H](CC(C)C)NC(=O)[C@H](C)NC(=O)[C@H](CC(=O)O)NC(=O)[C@H](CC(C)C)NC(=O)[C@@H](NC(=O)[C@@H](NC(=O)[C@H](C)NC(=O)[C@H](CC(C)C)NC(=O)[C@H](CCC(=O)O)NC(=O)[C@H](CO)NC(=O)[C@H](CO)NC(=O)[C@H](Cc1ccccc1)NC(=O)[C@@H](NC(=O)CNC(=O)[C@H](CCC(=O)O)NC(=O)CNC(=O)[C@@H](N)Cc1cnc[nH]1)[C@@H](C)O)[C@@H](C)O)[C@@H](C)CC)[C@@H](C)CC)C(=O)N[C@@H](C)C(=O)N[C@H](C(=O)N[C@@H](CCCCN)C(=O)N[C@H](C(=O)N[C@H](C(=O)N[C@@H](CC(=O)O)C(=O)N[C@@H](CCCCN)C(=O)N[C@@H](CCCCN)C(=O)N[C@@H](CCCCN)C(=O)N[C@@H](CCCCN)C(=O)N[C@@H](CCCCN)C(=O)N[C@@H](CCCCN)C(N)=O)[C@@H](C)O)[C@@H](C)CC)[C@@H](C)O | immunoaffinity LC-MS/MS | healthy human subjects, plasma | intravenous infusion, 1 mg, 15 min infusion | 54.9 nM |
| CCCCCCCCCC(O)CC(=O)CCc1ccc(O)c(OC)c1 (stereo not shown) |  | healthy Indonesian humans, plasma | oral, 2 g red ginger suspension, single dose | 160 ng/mL |
| NC(=O)C1(NC(=O)[C@H](Cc2ccccc2)NC(=O)[C@@H](Cc2c[nH]c3ccccc23)NC(=O)[C@@H](Cc2csc3ccccc23)NC(=O)C2CCNCC2)CCNCC1 |  | human, diabetic gastroparesis, plasma | subcutaneous, 100 µg single dose | ~4 ng/mL |
| CN[C@@H](CCOc1cccc2ccccc12)c1ccccc1 |  | healthy male humans, plasma | oral, 60 mg of dapoxetine, together with: udenafil 200 mg | 12.7 ± 6.17 ng/mL |
| CCc1cc(Nc2nc(-c3ccc(-n4cnc(C)c4)c(F)c3)cs2)c(C)cc1C |  | human, both sexes, plasma | oral, 400 mg, day 1, multiple dose, geometric mean | 1610 ng/mL |
| O=C(CCc1ccc(CNC(C(=O)O)C2CCCCC2)cn1)NO (stereo not shown) |  | human, plasma | oral, 40 mg once daily, day 1, geometric mean | 151 ng/mL |
| CN1CCC[C@]1(C)/C=C/S(=O)(=O)NC(=O)Nc1c2c(cc3c1CCC3)CCC2 |  | human, plasma | oral, 12.5 to 100 mg twice daily, 14 days, first dose at steady state | 2000 to 16400 ng/mL |

Excerpt of the above:
| Structure (SMILES) | test | system | conditions | Cmax |
| --- | --- | --- | --- | --- |
| Cc1[nH]nc2c1N=C(c1ccccc1Cl)c1cnc(N3CCOCC3)cc1N2 | measured: total radioactivity | human male, plasma | oral, 10 mg | 84.9 ng eq/mL |
| CCn1c(=O)n(CCO)c(=O)c2c1nc(/C=C/c1ccc(OC)c(OC)c1)n2C |  | healthy humans, plasma | oral, 40 mg, together with: rifampin 600 mg/day | 14.1 ng/mL |
